Measurements collected from several papers.
Numbered parts are unrelated; each lists some results of a single study. “And” joins repeats or separate records; there may be more than shown.
Sequence of UniProt Q9P289 (whole entry, looked up): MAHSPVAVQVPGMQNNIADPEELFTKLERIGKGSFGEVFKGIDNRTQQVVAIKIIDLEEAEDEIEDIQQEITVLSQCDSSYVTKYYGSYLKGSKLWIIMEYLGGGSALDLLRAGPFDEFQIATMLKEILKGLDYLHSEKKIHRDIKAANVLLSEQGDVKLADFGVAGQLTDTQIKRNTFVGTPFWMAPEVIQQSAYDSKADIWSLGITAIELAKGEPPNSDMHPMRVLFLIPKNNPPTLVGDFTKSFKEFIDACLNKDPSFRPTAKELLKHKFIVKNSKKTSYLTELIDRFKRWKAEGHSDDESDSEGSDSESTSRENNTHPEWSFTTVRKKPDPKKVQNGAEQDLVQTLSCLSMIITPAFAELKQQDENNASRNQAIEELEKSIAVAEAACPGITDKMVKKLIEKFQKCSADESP
Sequence of UniProt Q7KZI7 (whole entry, looked up): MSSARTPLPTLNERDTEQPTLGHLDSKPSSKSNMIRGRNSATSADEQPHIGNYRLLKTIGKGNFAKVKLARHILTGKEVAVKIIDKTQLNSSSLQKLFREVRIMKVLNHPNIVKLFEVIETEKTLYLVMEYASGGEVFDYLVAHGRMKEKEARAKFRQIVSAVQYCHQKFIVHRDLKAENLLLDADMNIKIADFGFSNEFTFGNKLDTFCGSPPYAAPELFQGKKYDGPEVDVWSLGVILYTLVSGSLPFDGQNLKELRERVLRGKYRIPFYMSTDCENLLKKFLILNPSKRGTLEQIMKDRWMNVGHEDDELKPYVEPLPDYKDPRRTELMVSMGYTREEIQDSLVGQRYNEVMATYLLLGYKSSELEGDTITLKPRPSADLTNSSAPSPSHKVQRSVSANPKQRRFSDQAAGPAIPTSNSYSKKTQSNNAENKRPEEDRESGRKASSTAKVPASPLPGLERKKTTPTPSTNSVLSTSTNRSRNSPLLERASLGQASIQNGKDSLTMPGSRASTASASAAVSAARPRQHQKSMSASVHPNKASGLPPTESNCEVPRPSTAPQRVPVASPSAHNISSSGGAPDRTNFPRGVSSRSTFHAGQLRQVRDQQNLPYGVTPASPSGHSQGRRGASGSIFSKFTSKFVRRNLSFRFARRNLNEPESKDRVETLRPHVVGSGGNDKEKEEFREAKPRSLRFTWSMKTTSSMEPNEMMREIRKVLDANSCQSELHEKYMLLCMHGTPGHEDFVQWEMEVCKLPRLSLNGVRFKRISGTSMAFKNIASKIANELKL
Sequence of UniProt P53671 (whole entry, looked up): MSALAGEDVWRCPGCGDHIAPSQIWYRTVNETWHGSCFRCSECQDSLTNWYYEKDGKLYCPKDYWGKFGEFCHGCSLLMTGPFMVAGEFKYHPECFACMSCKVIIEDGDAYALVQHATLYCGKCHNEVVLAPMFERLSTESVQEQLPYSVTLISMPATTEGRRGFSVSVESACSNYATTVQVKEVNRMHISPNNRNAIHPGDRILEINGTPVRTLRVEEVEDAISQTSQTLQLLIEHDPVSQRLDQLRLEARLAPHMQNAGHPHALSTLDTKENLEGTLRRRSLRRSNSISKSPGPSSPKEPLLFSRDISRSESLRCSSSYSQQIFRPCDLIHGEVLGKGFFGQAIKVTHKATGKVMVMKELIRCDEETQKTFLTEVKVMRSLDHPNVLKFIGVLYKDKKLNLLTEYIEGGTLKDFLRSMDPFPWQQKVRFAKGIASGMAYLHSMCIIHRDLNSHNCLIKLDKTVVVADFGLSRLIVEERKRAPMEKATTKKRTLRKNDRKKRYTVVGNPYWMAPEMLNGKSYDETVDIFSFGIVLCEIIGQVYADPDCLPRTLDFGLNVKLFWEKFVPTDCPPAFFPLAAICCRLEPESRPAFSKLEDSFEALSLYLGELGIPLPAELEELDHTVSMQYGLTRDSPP
Sequence of UniProt Q9BVS4 (whole entry, looked up): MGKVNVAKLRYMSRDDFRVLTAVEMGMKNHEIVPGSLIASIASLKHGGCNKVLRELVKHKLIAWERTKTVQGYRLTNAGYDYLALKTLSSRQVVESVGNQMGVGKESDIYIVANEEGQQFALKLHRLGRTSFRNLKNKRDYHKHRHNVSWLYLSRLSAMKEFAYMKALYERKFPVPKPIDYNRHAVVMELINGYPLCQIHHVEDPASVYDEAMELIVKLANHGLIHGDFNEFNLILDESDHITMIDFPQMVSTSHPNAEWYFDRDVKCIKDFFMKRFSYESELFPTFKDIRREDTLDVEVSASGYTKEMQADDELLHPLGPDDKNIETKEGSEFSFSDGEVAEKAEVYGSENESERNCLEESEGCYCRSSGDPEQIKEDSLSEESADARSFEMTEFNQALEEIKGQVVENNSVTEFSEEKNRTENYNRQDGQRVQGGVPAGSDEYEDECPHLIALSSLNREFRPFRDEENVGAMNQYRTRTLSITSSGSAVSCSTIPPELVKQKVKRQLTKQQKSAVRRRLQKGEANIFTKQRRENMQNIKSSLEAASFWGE

Set 1 — concentration: 1 µM
SMILES: COc1ccc2[nH]c3c4[nH]c5ccc(OC)cc5c4c4c(c3c2c1)C(=O)NC4=O
target | test | setting | scale | remaining binding
Tyrosine-protein kinase Mer (MERTK, Homo sapiens, UniProt Q12866) | competitive binding panel |  | baseline: vehicle | 19%
Casein kinase I isoform gamma-3 (CSNK1G3, Homo sapiens, UniProt Q9Y6M4) | competitive binding panel |  | baseline: vehicle | 100%
LIM domain kinase 2 (LIMK2, Homo sapiens, UniProt P53671) | competitive binding panel |  | baseline: vehicle | 81%
Serine/threonine-protein kinase MRCK beta (CDC42BPB, Homo sapiens, UniProt Q9Y5S2) | competitive binding | MRCKB |  | 89%
Mitogen-activated protein kinase kinase kinase 6 (MAP3K6, Homo sapiens, UniProt O95382) | competitive binding panel, refers to: ASK2 |  | baseline: vehicle | 86%
Misshapen-like kinase 1 (MINK1, Homo sapiens, UniProt Q8N4C8) | competitive binding | MINK |  | 1.7%

Set 2 — cell line: mouse MPNST tumor cells; method: high-content nuclear imaging; refers to: cell number; concentration: 10 µM; time: 12 h; setting: mean of 2 replicates; baseline: plate mean; reading: higher = more cells
SMILES | nuclei count
C[C@@H](O)CNC(C)(C)CC(=O)N[C@@H]1CCc2ccccc2N(Cc2ccc(-c3ccccc3-c3nn[nH]n3)cc2)C1=O | 2.09 z-score
N[C@@H](CC(=O)N1CCn2c(nnc2C(F)(F)F)C1)Cc1cc(F)c(F)cc1F | 1.15 z-score and 3.02 z-score
O=C(Nc1cccc(C(F)(F)F)c1)Nc1ccc(Br)cc1-c1nn[nH]n1 | -0.274 z-score
CCCCNc1cc(C(=O)O)cc(S(N)(=O)=O)c1Oc1ccccc1 | 1.68 z-score and 3.22 z-score and 0.766 z-score
CC(C)/N=c1\cc2n(-c3ccc(Cl)cc3)c3ccccc3nc-2cc1Nc1ccc(Cl)cc1 | 0.664 z-score
O=C(Nc1c(Cl)cncc1Cl)c1ccc(OC(F)F)c(OCC2CC2)c1 | -0.742 z-score

Set 3 — effect on: cell-free assay; method: competition with immobilised ligand; concentration: 1 µM
Structure (SMILES): Cc1nc(Cc2cccc(C(F)(F)F)c2)sc1-c1ccc(C(N)=O)nc1
target | remaining binding
Serine/threonine-protein kinase ULK3 (ULK3, Homo sapiens, UniProt Q6PHR2) | 100%
Atypical kinase COQ8B, mitochondrial (COQ8B, Homo sapiens, UniProt Q96D53) | 100%
Testis-specific serine/threonine-protein kinase 1 (TSSK1B, Homo sapiens, UniProt Q9BXA7) | 54%
Serine/threonine-protein kinase 26 (STK26, Homo sapiens, UniProt Q9P289) | 83%
Tyrosine-protein kinase JAK2, JH1 (JAK2, Homo sapiens, UniProt O60674) | 100%
High affinity nerve growth factor receptor (NTRK1, Homo sapiens, UniProt P04629) | 64%
Peripheral plasma membrane protein CASK (CASK, Homo sapiens, UniProt O14936) | 85%
Epidermal growth factor receptor (EGFR, Homo sapiens, UniProt P00533) | 100%
Mitogen-activated protein kinase kinase kinase 2 (MAP3K2, Homo sapiens, UniProt Q9Y2U5) | 100%
Mitogen-activated protein kinase kinase kinase kinase 4 (MAP4K4, Homo sapiens, UniProt O95819) | 80%
Proto-oncogene tyrosine-protein kinase ROS (ROS1, Homo sapiens, UniProt P08922) | 94%
Interleukin-1 receptor-associated kinase 4 (IRAK4, Homo sapiens, UniProt Q9NWZ3) | 100%
Serine/threonine-protein kinase MARK2 (MARK2, Homo sapiens, UniProt Q7KZI7) | 69%
Serine/threonine-protein kinase PAK 6 (PAK6, Homo sapiens, UniProt Q9NQU5) | 92%
Serine/threonine-protein kinase RIO2 (RIOK2, Homo sapiens, UniProt Q9BVS4) | 98%
Serine/threonine-protein kinase PAK 4 (PAK4, Homo sapiens, UniProt O96013) | 96%
Serine/threonine-protein kinase mTOR (MTOR, Homo sapiens, UniProt P42345) | 87%
Activin receptor type-1 (ACVR1, Homo sapiens, UniProt Q04771) | 100%
Non-receptor tyrosine-protein kinase TYK2, JH2 (TYK2, Homo sapiens, UniProt P29597) | 100%
Phosphatidylinositol 4,5-bisphosphate 3-kinase catalytic subunit alpha isoform (PIK3CA, Homo sapiens, UniProt P42336) | 88%
Receptor tyrosine-protein kinase erbB-2 (ERBB2, Homo sapiens, UniProt P04626) | 100%
MAP/microtubule affinity-regulating kinase 3 (MARK3, Homo sapiens, UniProt P27448) | 86%
Serine/threonine-protein kinase 33 (STK33, Homo sapiens, UniProt Q9BYT3) | 91%
Dual specificity protein kinase CLK3 (CLK3, Homo sapiens, UniProt P49761) | 85%
Phosphatidylinositol 4,5-bisphosphate 3-kinase catalytic subunit gamma isoform (PIK3CG, Homo sapiens, UniProt P48736) | 78%

Set 4 — effect on: enzyme activity; action: inhibitor; concentration: 77 µM; baseline: untreated
Target: DNA polymerase theta, ATPase domain (POLQ, Homo sapiens, UniProt O75417)
Sequence of UniProt O75417 (whole entry, unmodified, looked up): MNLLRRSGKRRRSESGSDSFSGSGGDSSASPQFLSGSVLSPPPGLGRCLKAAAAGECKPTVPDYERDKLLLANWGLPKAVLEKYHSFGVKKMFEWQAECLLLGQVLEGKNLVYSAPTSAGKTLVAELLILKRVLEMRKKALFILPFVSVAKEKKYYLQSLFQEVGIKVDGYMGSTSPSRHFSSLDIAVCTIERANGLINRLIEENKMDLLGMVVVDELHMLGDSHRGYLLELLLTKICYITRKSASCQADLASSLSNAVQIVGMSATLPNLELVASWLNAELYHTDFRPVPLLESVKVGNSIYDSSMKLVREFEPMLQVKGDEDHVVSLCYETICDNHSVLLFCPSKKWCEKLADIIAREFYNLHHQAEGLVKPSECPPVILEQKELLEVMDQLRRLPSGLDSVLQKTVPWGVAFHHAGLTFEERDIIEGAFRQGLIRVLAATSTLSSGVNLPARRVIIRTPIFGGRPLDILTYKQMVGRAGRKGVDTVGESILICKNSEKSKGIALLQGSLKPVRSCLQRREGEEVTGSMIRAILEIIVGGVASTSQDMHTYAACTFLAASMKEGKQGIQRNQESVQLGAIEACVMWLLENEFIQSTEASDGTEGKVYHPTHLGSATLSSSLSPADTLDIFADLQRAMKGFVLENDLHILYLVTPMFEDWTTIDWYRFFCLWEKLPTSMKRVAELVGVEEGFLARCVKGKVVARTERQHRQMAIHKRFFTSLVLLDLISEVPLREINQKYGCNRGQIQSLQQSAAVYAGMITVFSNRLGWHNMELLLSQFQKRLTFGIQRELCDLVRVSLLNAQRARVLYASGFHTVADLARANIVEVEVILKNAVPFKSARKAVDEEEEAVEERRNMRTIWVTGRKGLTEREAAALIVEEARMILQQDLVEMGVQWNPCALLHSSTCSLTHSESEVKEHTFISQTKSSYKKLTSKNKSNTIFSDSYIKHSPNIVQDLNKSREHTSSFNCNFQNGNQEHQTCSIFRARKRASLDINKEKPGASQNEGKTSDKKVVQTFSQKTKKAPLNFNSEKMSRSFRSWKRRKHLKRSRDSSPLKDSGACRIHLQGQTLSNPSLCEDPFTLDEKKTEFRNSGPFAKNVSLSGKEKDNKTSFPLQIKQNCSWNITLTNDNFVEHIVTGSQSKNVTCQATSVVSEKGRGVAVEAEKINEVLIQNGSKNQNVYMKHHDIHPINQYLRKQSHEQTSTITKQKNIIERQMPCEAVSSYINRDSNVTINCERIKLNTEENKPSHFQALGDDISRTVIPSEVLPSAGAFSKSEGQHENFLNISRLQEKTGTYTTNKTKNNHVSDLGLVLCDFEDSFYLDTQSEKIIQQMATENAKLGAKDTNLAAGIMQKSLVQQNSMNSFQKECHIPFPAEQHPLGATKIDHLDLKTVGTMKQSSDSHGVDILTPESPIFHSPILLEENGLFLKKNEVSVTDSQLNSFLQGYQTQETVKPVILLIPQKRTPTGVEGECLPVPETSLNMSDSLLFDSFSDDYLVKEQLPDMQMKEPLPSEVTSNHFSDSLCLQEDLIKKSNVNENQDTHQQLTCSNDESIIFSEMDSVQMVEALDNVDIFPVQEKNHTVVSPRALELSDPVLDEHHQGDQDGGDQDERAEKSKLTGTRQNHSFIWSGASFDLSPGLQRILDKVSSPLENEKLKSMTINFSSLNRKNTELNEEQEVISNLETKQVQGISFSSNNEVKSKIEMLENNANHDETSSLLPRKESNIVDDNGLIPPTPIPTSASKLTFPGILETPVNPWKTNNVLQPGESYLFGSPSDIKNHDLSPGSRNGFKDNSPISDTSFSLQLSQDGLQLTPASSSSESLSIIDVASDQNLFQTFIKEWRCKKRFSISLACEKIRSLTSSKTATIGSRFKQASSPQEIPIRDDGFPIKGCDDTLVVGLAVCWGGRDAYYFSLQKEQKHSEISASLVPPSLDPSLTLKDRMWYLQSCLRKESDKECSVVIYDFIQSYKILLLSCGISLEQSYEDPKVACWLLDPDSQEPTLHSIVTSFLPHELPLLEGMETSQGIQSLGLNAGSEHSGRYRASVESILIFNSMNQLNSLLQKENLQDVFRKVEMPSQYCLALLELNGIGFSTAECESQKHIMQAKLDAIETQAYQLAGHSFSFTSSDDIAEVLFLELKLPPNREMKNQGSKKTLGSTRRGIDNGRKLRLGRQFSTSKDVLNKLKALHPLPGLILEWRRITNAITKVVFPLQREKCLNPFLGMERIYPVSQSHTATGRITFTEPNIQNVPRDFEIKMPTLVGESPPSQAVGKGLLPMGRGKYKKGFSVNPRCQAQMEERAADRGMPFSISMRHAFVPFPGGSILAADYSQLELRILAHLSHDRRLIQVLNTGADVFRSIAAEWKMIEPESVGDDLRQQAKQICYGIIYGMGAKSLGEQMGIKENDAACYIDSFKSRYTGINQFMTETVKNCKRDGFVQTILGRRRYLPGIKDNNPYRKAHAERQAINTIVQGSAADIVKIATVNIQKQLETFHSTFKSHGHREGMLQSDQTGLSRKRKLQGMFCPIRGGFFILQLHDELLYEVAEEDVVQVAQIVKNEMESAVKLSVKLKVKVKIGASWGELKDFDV
Compound | remaining activity
CC(=O)Nc1ccc(OCC(O)CNC(C)C)cc1 (centres unmarked) | 105%
C=CCOC(Cn1ccnc1)c1ccc(Cl)cc1Cl (centres unmarked) | 80.7%
Nc1nccc(-c2c(-c3ccc(F)cc3)ncn2C2CCNCC2)n1 | 105%
COc1cc(=O)n(C)c2c(OCC(O)C(C)(C)O)cccc12 (centres unmarked) | 104%
c1ccc(CN(Cc2ncc[nH]2)c2ccccc2)cc1 | 97.2%

Set 5 — species: human patients; matrix: plasma
Compound: COc1ccc(-c2c(Nc3ccccn3)[nH]c3c(C4=CCCCC4)c(-c4ccccc4)nn3c2=O)cc1
test | setting | median concentration
refers to: methionine | 150 mg once daily, 6 h | 90600 ng/mL
refers to: S-adenosylmethionine | 150 mg once daily, 4 h | 18.1 ng/mL
refers to: methionine | 400 mg once daily, 0 h | 80400 ng/mL
refers to: methionine | 100 mg once daily, 4 h | 84800 ng/mL
refers to: methionine | 400 mg once daily, 6 h | 89200 ng/mL
refers to: S-adenosylmethionine | 200 mg once daily, 4 h | 13.7 ng/mL

Set 6 — species: human; matrix: microsomes or S9; concentration: 2 µM; time: 0.5 h
Structure (SMILES) | remaining compound
CCc1n[nH]c(=O)c(-c2nc(C3CCCC3)cs2)c1CC | 0.999%
COC(=O)C(C)NC(=O)C12CC3(C)CC(C)(CC(C)(C3)C1)C2 (centres unmarked) | 0.0194%
O=C(Nc1ccccc1Cl)NC1(C(=O)N2CCC(O)CC2)CCCCC1 | > 99%
COc1ncc(NC(=O)CCCNC(=O)OC(C)(C)C)cc1C#N | 75.1%
O=c1ccc2cc(S(=O)(=O)N3CCOCC3)ccc2[nH]1 | 78.6%

Repeated from above (set 3):
target | remaining binding
Tyrosine-protein kinase JAK2, JH1 (JAK2, Homo sapiens, UniProt O60674) | 100%
High affinity nerve growth factor receptor (NTRK1, Homo sapiens, UniProt P04629) | 64%
Peripheral plasma membrane protein CASK (CASK, Homo sapiens, UniProt O14936) | 85%
Epidermal growth factor receptor (EGFR, Homo sapiens, UniProt P00533) | 100%
Mitogen-activated protein kinase kinase kinase 2 (MAP3K2, Homo sapiens, UniProt Q9Y2U5) | 100%
Mitogen-activated protein kinase kinase kinase kinase 4 (MAP4K4, Homo sapiens, UniProt O95819) | 80%
Proto-oncogene tyrosine-protein kinase ROS (ROS1, Homo sapiens, UniProt P08922) | 94%
Interleukin-1 receptor-associated kinase 4 (IRAK4, Homo sapiens, UniProt Q9NWZ3) | 100%
Serine/threonine-protein kinase MARK2 (MARK2, Homo sapiens, UniProt Q7KZI7) | 69%
